Results from different studies.
Protocols differ between the studies behind these lines. Numbers after ± are the reported error.

`CCCC(C)NC(=O)c1ccc(Cl)c(Cl)c1` (stereo not drawn) gave a tumour volume of 366 ± 123 mm3 (MCF7-β3/MT xenograft, mouse; intratumoral, 0.5 mg/kg, day 46, 3 times weekly from day 29, 7 doses).
Under “tumour doubling time”, `Cc1[nH]c2ccccc2c1CCNCc1ccc(/C=C/C(=O)NO)cc1` is recorded as 8.3 days (SF8628 luciferase flank xenograft, mouse DIPG flank model; intraperitoneal, 10 mg/kg, 2 weeks daily).
For `Nc1ccn([C@@H]2O[C@H](CO)[C@@H](O)C2(F)F)c(=O)n1`, the tumour volume was 343 mm³ (mouse, HCT-116 subcutaneous xenograft; intravenous, 25 mg/kg on days 0, 2, 4, 12 days after treatment).
With `CC1=CC(=O)C(C(C)C)=CC1=O` the tumour volume was ~270 mm³ (786-0, mouse xenograft; intraperitoneal, 20 mg/kg every 3 days, 4 weeks).
For `CC(C)(C)OC(=O)NCC(=O)OC1CCC2(C)C(C(O)CC3(C)C2CC(O)C2C(C4(C)CCCC(C)(C)O4)CCC23C)C1(C)C` (stereo not drawn), “tumour growth inhibition” read 70.3% (item: tumour weight; nude mouse, HeLa xenograft; intraperitoneal, 30 mg/kg, every 2 days for 20 days).
With `NNc1ccc(C(=O)NCCN2CC(=Cc3ccccc3F)C(=O)C(=Cc3ccccc3F)C2)cn1` the tumour volume was ~434 mm³ (mouse PANC-1 xenograft; ip, 5 µg daily, 3 weeks).
Under “tumour growth inhibition”, `COc1ccc(/C=C\c2cc(OC)c(OC)c(OC)c2)cc1OP(=O)(O)O` is recorded as 57.9% (mouse S-180 tumour; intravenous, 20 mg/kg CA4 equivalent, 7 days daily dosing; reference: saline).
With `CC(=O)O[C@@]12CO[C@@H]1C[C@H](O)[C@@]1(C)C(=O)[C@H](O)C3=C(C)[C@@H](OC(=O)[C@H](O)[C@@H](NC(=O)OC(C)(C)C)c4ccccc4)C[C@@](O)([C@@H](OC(=O)c4ccccc4)[C@H]21)C3(C)C` the tumour volume was 207 ± 66 mm3 (mouse, PC-3 xenograft; 5 mg/kg once weekly for 3 weeks, day 28 after inoculation).
For `C[C@H]1[C@H](OC(=O)CCC(=O)O)O[C@@H]2O[C@@]3(C)CC[C@H]4[C@H](C)CC[C@@H]1[C@@]24OO3`, “tumour growth inhibition” read 19.8% (tumour weight; mouse, Hep3B-Luc orthotopic xenograft; 50 mg/kg daily, 24 days; reference: vehicle).
For `CC[C@H](C)[C@H](NC(=O)[C@H](CC(C)C)NC(=O)[C@@H](NC(=O)[C@@H]1CCCN1C(=O)[C@@H](NC(=O)[C@@H]1CCCN1C(=O)[C@@H](NC(=O)[C@H](CO)NC(=O)[C@H](Cc1c[nH]cn1)NC(=O)[C@@H]1CCCN1C(=O)[C@H](CCCNC(=N)N)NC(=O)[C@H](CCCCN)NC(=O)[C@H](CCCNC(=N)N)NC(=O)[C@H](CCCNC(=N)N)NC(=O)[C@H](CCCNC(=N)N)NC(=O)[C@@H]1CCCN1C(=O)[C@H](CCCNC(=N)N)NC(=O)[C@H](CC(C)C)NC(=O)[C@H](CC(C)C)NC(=O)[C@H](Cc1c[nH]cn1)NC(=O)[C@H](Cc1c[nH]cn1)NC(=O)CNC(=O)[C@@H](N)CSSC[C@H](N)C(=O)NCC(=O)N[C@@H](Cc1c[nH]cn1)C(=O)N[C@@H](Cc1c[nH]cn1)C(=O)N[C@@H](CC(C)C)C(=O)N[C@@H](CC(C)C)C(=O)N[C@@H](CCCNC(=N)N)C(=O)N1CCC[C@H]1C(=O)N[C@@H](CCCNC(=N)N)C(=O)N[C@@H](CCCNC(=N)N)C(=O)N[C@@H](CCCNC(=N)N)C(=O)N[C@@H](CCCCN)C(=O)N[C@@H](CCCNC(=N)N)C(=O)N1CCC[C@H]1C(=O)N[C@@H](Cc1c[nH]cn1)C(=O)N[C@@H](CO)C(=O)N[C@H](C(=O)N1CCC[C@H]1C(=O)N[C@H](C(=O)N1CCC[C@H]1C(=O)N[C@H](C(=O)N[C@@H](CC(C)C)C(=O)N[C@H](C(=O)N[C@@H](Cc1ccccc1)C(=O)N[C@@H](CCCNC(=N)N)C(=O)N[C@@H](CO)C(=O)N1CCC[C@H]1C(=O)O)[C@@H](C)CC)[C@@H](C)CC)[C@@H](C)O)[C@@H](C)CC)[C@@H](C)CC)[C@@H](C)O)[C@@H](C)CC)C(=O)N[C@@H](Cc1ccccc1)C(=O)N[C@@H](CCCNC(=N)N)C(=O)N[C@@H](CO)C(=O)N1CCC[C@H]1C(=O)O`, tumour growth read “decreased” (BALB/c nude mouse, MDA-MB-231 xenograft, human PBMC; iv, 60 or 300 µg per mouse twice weekly, 2 weeks; reference: PBS or S-compound).
`CC[C@H](C)[C@H](NC(=O)[C@H](CC(C)C)NC(=O)[C@@H]1CCCN1C(=O)[C@H](CCCCN)NC(=O)[C@H](CC(C)C)NC(=O)[C@H](CCCNC(=N)N)NC(=O)[C@@H](NC(=O)CN)[C@@H](C)O)C(=O)N[C@H](C(=O)N[C@@H](CS)C(=O)N[C@H](C(=O)N[C@@H](CCC(N)=O)C(=O)N[C@@H](Cc1c[nH]c2ccccc12)C(=O)N1CCC[C@H]1C(=O)NCC(=O)N[C@@H](CC(C)C)C(=O)O)C(C)C)[C@@H](C)CC` has a tumour volume of 608 ± 220 mm³ (BALB/c mouse, CT26 colon carcinoma; intraperitoneal, 10 mg/kg daily, 13 days, pre-immunized with CT26 lysate).
Under tumour growth, `COc1cc([C@@H]2c3cc4c(cc3[C@H](OC(=O)CCCc3ccc(NS(=O)(=O)c5cccc(Br)c5)cc3)[C@H]3COC(=O)[C@H]23)OCO4)cc(OC)c1OC` is recorded as “inhibited” (A549 xenograft, BALB/c nude mouse, female; intraperitoneal, 4 mg/kg every two days, eight doses; reference: vehicle).
The tumour uptake of `N=C(N)NCCC[C@@H]1NC(=O)CNC(=O)[C@H](CC(N)=O)NC(=O)[C@H](CCCCNC(=S)Nc2ccc(C[C@H]3CN(CC(=O)O)CCN(CC(=O)O)CCN3CC(=O)O)cc2)NC(=O)CC[C@@H](C(N)=O)NC1=O` [gallium-68 labelled] is reported as 0.21 ± 0.09 %ID/g (PET/CT; BALB/c nude mouse, MCF7 xenograft; intravenous, 30 min).
For `CC(C)C[C@H](NC(=O)[C@@H](O)[C@H](N)Cc1ccccc1)C(=O)O`, the tumour size was 2.9 ± 0.1 cm (MRI, sum of long and short diameters; nude mouse, HT-1080 xenograft; i.p., 0.5 mg/kg/day for 7 days, 168 h).
`Cc1ccc(C[C@H](NC(=O)[C@@H](C)NC(=O)[C@@H]2CCCN2C(=O)[C@@H]2C[C@@H]3CCCC[C@@H]3N2C(=O)[C@H](N)CCCNC(=N)N)C(N)=O)cc1` — result for “tumour vessel count”: 4.9 ± 2.4 vessels/hpf (immunostaining, item: PECAM-1 (CD31); nude mouse PC-3 xenograft, tumour; drinking water, 3 mg/mL).

A few entries again:
`CCCC(C)NC(=O)c1ccc(Cl)c(Cl)c1` (stereo not drawn) gave a tumour volume of 366 ± 123 mm3 (MCF7-β3/MT xenograft, mouse; intratumoral, 0.5 mg/kg, day 46, 3 times weekly from day 29, 7 doses).
Under “tumour doubling time”, `Cc1[nH]c2ccccc2c1CCNCc1ccc(/C=C/C(=O)NO)cc1` is recorded as 8.3 days (SF8628 luciferase flank xenograft, mouse DIPG flank model; intraperitoneal, 10 mg/kg, 2 weeks daily).
